Measurements collected from several papers.
Each numbered part is a random draw from the data of one study; scales do not carry over between parts. Substitutions count along the parent as printed.

Block 1
Target: CCNB1, cyclin fold, Cln2 fusion (human)
Method: yeast growth competition, sequencing
Sample: yeast
Notes: strong parent motif
Relative to: not given
Reading: higher = stronger binding
Measurement: normalised enrichment score
Parent: viral docking peptide; KGVKRKLFAEDSS; partner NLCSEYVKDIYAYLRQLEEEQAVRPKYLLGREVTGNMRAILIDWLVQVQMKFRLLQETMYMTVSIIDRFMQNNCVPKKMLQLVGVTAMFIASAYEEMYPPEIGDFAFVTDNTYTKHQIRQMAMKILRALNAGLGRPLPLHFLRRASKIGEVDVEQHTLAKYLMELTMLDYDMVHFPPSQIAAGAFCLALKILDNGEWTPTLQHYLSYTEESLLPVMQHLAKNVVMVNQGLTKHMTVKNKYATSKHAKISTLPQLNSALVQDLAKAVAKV
D11E: 2.85
E10G: 0.823
K4D: 0.443
E10F: 0.681
G2P: 3.24
K6C: 2.45
K4C: 4.42
K6L: 0.334
K4W: 0.121
K6E: 2.28
A9Y: 2.99
A9K: 1.09
E10L: 0.846
G2L: 1.23
A9W: 1.38
L7P: 0.14
G2N: 2.28

Block 2
Target: TAR DNA-binding protein 43, full length, His tag (TARDBP, Homo sapiens, UniProt Q13148, residues 1-414)
Method: RNA Bind-n-Seq
Form: RNA
Sample: in vitro
Tested at: 20 nM
Notes: 6-mer, flanks averaged, single round
Together with: 150 mM LiCl
Relative to: input library
Reading: higher = stronger binding
Measurement: 6-mer enrichment (R)
UAUUUA: 1.13
ACCGGA: 0.851
CACAUU: 0.945
CCUGUG: 1.06
CCUAGU: 0.917
CUAGCU: 0.854
CCCGAU: 0.942
AUUGUG: 1.25

Block 3
Target: HLA class I histocompatibility antigen, A alpha chain, allele A*80:01 (Homo sapiens, UniProt P04439)
Effect on: peptide-MHC binding
Form: peptide
Tested at: concentration not given
Measurement: binding
DIKLIDIAL: inactive
KVIEKMEVL: inactive
SVHYKFVTK: inactive
LSDLCNFLV: inactive
GSEEIKSLY: inactive
ETIEILRNY: active
GTIIVHPNK: inactive

Block 4
Target: UBE2D3 UBC core domain (UniProt P61077)
Method: yeast two-hybrid
Sample: yeast
Notes: mostly zero background
Relative to: not given
Reading: higher = stronger interaction
Measurement: lacZ reporter activity
B1: UHRF2 RING domain (UniProt Q96PU4); chain CGGDPEKKCHSCSCRVCGGKHEPNMQLLCDECNVAYHIYCLNPPLDKVPEEEYWYCPSCKTDSSEVVKAGER
B2: TRIM8 RING domain (UniProt Q9BZR9); chain WKNCFEEELICPICLHVFVEPVQLPCKHNFCRGCIGEAWAKDSGLVRCPECNQAYNQKPGLE
Target sequence (chain): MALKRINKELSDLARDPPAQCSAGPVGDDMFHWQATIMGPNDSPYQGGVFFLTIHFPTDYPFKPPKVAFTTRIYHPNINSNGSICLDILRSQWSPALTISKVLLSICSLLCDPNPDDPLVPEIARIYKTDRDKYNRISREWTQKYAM
B1 (UHRF2 RING domain): 0
QHHELTSLFECPVCFDYVLPPILQCQAGHLVCNQCRQKLSCCPTCRGALTPSIRNL (SIAH2 RING domain (UniProt O43255)): 0
QLRRLQEERTCKVCMDKEVSVVFIPCGHLVVCQECAPSLRKCPICRGIIKGTVRTF (BIRC2 RING domain (UniProt Q13490)): 0
B2 (TRIM8 RING domain): 0
FASPPDSNFVCSVCHGVLKRPARLPCSHIFCKKCILRWLARQKTCPCCRKEVKRKKVVH (RNF151 RING domain (UniProt Q2KHN1)): 0
